Results gathered from unrelated publications.
A part holds a random share of what one study measured.
Sequence of UniProt Q9Y5N1 (whole entry, looked up): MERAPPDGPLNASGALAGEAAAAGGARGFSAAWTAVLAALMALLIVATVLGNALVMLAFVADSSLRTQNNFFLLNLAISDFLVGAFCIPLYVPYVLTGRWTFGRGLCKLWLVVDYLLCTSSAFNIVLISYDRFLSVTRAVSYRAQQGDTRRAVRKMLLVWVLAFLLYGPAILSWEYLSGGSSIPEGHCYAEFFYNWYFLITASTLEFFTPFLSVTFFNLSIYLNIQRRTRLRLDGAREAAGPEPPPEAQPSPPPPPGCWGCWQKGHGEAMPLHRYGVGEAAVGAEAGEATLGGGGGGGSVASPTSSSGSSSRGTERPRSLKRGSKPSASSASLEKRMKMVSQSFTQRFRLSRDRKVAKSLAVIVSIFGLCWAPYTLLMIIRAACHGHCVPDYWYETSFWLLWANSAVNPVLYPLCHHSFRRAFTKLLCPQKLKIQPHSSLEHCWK
Sequence of UniProt P35348 (whole entry, looked up): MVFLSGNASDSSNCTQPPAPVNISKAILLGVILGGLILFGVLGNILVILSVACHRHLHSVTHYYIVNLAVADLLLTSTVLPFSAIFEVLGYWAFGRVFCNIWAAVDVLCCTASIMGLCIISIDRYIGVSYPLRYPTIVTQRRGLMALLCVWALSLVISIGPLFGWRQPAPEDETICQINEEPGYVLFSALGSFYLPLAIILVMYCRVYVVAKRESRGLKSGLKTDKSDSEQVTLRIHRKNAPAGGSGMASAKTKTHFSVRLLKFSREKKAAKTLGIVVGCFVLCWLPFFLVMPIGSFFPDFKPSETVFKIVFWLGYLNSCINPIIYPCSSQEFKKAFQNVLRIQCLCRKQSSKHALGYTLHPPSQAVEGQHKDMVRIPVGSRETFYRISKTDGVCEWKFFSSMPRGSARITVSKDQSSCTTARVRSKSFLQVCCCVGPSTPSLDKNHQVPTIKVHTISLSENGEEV
Sequence of UniProt P41595 (whole entry, looked up): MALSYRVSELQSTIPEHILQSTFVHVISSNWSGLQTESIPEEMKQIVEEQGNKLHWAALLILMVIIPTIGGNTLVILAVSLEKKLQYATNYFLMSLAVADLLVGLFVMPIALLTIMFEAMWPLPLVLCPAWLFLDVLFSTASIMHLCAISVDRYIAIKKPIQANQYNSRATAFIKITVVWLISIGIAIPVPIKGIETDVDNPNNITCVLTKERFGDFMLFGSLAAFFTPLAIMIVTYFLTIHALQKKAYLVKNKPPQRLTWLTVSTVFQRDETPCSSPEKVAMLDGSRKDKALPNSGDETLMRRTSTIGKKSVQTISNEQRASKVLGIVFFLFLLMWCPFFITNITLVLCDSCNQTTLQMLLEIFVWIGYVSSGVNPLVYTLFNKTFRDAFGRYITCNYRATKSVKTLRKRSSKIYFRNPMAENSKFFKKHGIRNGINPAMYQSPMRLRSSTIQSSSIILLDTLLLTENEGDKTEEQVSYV
Sequence of UniProt P50406 (whole entry, looked up): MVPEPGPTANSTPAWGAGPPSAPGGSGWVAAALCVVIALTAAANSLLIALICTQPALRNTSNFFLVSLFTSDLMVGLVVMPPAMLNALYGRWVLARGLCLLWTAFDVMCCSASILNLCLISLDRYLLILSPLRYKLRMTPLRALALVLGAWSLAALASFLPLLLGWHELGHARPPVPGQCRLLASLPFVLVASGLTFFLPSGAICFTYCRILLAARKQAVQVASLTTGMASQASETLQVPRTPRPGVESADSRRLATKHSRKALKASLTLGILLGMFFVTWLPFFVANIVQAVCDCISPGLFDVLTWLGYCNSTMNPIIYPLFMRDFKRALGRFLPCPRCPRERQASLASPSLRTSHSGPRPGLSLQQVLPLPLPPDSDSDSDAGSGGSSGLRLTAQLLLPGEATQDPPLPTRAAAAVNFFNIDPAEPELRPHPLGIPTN
Sequence of UniProt P08912 (whole entry, looked up): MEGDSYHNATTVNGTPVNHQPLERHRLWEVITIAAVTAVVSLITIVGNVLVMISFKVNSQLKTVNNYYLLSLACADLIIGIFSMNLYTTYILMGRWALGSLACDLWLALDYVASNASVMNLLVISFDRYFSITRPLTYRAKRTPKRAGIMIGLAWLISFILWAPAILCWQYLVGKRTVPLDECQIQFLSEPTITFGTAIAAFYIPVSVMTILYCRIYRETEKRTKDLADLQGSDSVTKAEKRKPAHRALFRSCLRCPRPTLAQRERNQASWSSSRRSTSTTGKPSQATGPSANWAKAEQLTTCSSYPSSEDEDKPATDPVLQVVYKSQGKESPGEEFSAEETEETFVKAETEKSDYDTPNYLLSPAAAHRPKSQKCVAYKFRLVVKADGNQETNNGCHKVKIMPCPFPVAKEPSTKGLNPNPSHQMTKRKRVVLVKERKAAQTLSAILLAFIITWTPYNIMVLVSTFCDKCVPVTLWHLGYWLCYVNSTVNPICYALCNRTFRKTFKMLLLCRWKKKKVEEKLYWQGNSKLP
Sequence of UniProt P21917 (whole entry, looked up): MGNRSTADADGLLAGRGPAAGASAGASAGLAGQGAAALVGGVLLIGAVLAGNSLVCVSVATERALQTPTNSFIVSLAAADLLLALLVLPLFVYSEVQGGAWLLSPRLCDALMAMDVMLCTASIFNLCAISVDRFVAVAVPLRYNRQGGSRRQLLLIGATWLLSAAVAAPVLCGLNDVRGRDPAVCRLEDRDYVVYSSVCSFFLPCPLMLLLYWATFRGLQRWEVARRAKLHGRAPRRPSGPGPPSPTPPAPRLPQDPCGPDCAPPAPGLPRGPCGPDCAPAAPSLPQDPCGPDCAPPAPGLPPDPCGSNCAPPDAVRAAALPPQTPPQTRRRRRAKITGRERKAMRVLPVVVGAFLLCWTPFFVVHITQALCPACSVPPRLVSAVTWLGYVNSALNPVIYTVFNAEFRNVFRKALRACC
Sequence of UniProt P28566 (whole entry, looked up): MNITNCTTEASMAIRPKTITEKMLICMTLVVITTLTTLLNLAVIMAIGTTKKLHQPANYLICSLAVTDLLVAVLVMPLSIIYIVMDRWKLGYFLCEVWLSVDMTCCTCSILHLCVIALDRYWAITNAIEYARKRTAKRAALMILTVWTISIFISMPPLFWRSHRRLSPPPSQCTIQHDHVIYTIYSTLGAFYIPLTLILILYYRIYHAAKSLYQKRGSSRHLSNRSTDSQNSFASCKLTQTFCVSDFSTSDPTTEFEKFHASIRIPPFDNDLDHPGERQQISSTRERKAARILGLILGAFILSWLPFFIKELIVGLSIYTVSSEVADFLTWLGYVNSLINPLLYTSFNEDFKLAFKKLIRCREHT

Series 1
Target: RNA binding protein fox-1 homolog 2, RRM domain, GST-SBP tag (RBFOX2, Homo sapiens, UniProt O43251-10, residues 100-194)
Technique: RNA Bind-n-Seq
Molecule type: RNA
Sample: in vitro
Tested at: 365 nM
Notes: natural RNA segment, single round, ends assumed
Baseline: no-protein control
Direction: higher = stronger binding
Quantity: RBNS enrichment (R)
Constant ends, left off below: GGGAGUUCUACAGUCCGACGAUC … UGGAAUUCUCGGGUGCCAA
Residues (chain): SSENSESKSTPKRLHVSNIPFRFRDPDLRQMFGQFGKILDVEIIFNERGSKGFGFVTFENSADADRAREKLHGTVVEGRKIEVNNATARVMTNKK
AUAAUGUCCUUUAUCCUGAUUUGAAAUAAUCACGUCAUCUUUCUGCUGAAUAAAAUUGGUUUGCAAGUUGUGGGGGUCCUGUCAUUAAUAUAUCAGGCAGGUAUUAAACU: 0.361
UCACUCCACAGUAUGCUAAAGAAGAAAAAGUGAGUGGGCACAACACUUUGACCCUCUGGCUAAGCCCUGGGAGUCCCUGACAGGUCCAGAAACUUCUCUGACACCCAUUC: 0.657
UGAGACAAGAGUGCCUAUGAGAAACCAUUGCACCUGGGAGCACUGCUUGGAGCUAUCUCUACAUUUAGUGAAUUUCUUGUAAAACACUUUGAGAUACAUUGUUUUGGAAA: 0.647
CUAAUUAGCUAUAUAGGCCCAGCGAUGCUUCUUAUUGAUCUUAAUAGUAUGCCCCUCCUUCCCCUGUCCUUUCAUUUCUCUAUCCAAGUAGCAGUCAGGUUCUUGGUGUG: 1.2
AGCUGAGUGAGAACAUGAACUUUUUGCACCAUGUACCCAUGGCUUACACUACUUAGAAAAUCACCUUUUCAGAUAAAACAGUUUAUGAGUUCAUAGAGAACACCAGCACU: 0.368
AAACACCAGUGAGGCUCUAUUGAGCCAAGACCAAGUCCUCAAAGCACCUGAACCACUGUGGCCUUCUCAGCCUACAGCAGUGUGGUCUCUUACAUGGCCACAAAGGGACA: 0.231
AAAGAUGGGGGGAAGGGAAAUAUGAGCCUUUGUUGCUUUCAAAACGAGAACAGUUUGUACAAGUUUUUUUUUUUGAAUAAAACUUUUCCAAUGAAAUGUUAUAGGUGUGU: 1.02
AUACAUUUUGGUGACUUCUGACUCUCCUUCCACCUCCCCACUGUACACUGUGGUACAGAUAGUUGGCACUAUCCUAGUUAUGGCAUCAGGUAGGAGAAGGAGACGAAGAU: 0.69

Series 2
Target: Histone acetyltransferase KAT6A, both winged helices, GST fusion (KAT6A, Homo sapiens, UniProt Q92794, residues 1-181)
Technique: protein binding microarray
Molecule type: double-stranded DNA, one strand shown
Sample: in vitro
Tested at: not given
Notes: 8-mer, flanks averaged, mean of 2 arrays, mostly near background
Baseline: not given
Direction: higher = stronger binding
Quantity: E-score
Construct (chain): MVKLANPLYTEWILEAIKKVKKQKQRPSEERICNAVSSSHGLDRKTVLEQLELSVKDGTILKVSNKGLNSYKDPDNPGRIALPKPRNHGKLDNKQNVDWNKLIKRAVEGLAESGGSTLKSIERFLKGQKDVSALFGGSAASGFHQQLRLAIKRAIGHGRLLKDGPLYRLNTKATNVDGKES
TAATCATA: -0.0728
ATCGAATA: 0.0198
GGTTTATA: 0.0988
ACGGAACA: 0.227
ACACTGTA: -0.108
AGAAAGTC: -0.038
CAACTAAC: -0.035
AATTTGTA: -0.0496

Series 3
Target: Ribosomal protein S6 kinase alpha-1 (RPS6KA1, Homo sapiens, UniProt Q15418)
Sequence of UniProt Q15418 (whole entry, looked up): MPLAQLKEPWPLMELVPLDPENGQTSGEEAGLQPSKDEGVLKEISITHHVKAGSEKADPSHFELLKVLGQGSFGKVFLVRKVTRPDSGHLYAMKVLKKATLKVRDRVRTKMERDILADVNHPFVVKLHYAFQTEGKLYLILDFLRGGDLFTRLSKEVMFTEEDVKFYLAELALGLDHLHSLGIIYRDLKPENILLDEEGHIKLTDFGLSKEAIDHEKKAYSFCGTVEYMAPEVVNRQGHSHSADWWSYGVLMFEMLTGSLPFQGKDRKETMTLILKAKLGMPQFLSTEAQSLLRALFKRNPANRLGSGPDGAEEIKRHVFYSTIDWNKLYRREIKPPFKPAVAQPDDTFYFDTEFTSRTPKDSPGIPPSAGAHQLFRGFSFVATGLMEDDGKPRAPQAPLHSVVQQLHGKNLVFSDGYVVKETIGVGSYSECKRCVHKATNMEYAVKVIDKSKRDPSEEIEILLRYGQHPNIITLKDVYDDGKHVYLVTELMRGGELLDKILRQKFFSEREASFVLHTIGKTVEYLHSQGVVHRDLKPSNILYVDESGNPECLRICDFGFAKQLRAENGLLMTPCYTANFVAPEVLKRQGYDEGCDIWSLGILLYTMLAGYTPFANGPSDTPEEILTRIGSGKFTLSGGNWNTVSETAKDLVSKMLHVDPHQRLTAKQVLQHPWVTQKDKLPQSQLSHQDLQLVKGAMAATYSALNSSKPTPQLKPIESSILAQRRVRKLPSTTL
Effect on: enzyme activity
Mode: inhibitor
Tested at: 0.5 µM
Baseline: control
Quantity: remaining activity
O=C1NC(=O)C(c2cn(CCCn3ccnc3)c3ccccc23)=C1Nc1ccccc1: 7.54%
COc1ccc(CNC(=O)Nc2ncc([N+](=O)[O-])s2)cc1: 96.3%
N#CC(C#N)=C(N)/C(C#N)=C/c1ccc(O)cc1: 93.8%
OCC(O)CCON=C1C(c2c(O)[nH]c3ccccc23)=Nc2ccccc21 (centres unmarked): 8.85%
COc1cc2nccc(Oc3ccc(NC(=S)NC(=O)c4ccccc4C)cc3)c2cc1OC: 97.3%
CO[C@H]1C[C@@H]2CC[C@@H](C)[C@@](O)(O2)C(=O)C(=O)N2CCCC[C@H]2C(=O)O[C@H]([C@H](C)C[C@@H]2CC[C@@H](O)[C@H](OC)C2)CC(=O)[C@H](C)/C=C(\C)[C@@H](O)[C@@H](OC)C(=O)[C@H](C)C[C@H](C)/C=C/C=C/C=C/1C: 104%
Cc1ccc(NC(=O)c2ccc(CN3CCN(C)CC3)cc2)cc1Nc1nc(-c2cccnc2)cs1: 97.2%
CCOC(=O)c1c(C)[nH]c(/C=C2\C(=O)Nc3ccccc32)c1C: 77.6%
CN(C)c1ccc(C=C2C(=O)Nc3ccccc32)cc1: 78.4%
Nc1ncnc2n[nH]c(Nc3ccc(F)cc3)c12: 82.2%
O=C1NC(=O)C(c2cn(CCCO)c3ncccc23)=C1c1cnccn1: 94.8%
O=S(=O)(c1cccc2cnccc12)N1CCCNCC1: 89.2%
COc1cc2ncnc(Nc3ccc(Oc4ccccc4)cc3)c2cc1OC: 97.6%
Cc1nc(-c2ccccc2)c(-c2ccncc2)o1: 103%

Series 4
Structure (SMILES): CNC(=O)c1cc(C(=O)N[C@H]2[C@@H]3COC[C@@H]32)cc2c1O[C@@H](CF)[C@@H]2c1ccccc1
Effect on: binding
Technique: radioligand binding
Tested at: 10 µM
Quantity: inhibition
SIGMAR1 (Homo sapiens, UniProt Q99720): 10.2%
HTR1E (Homo sapiens, UniProt P28566): 0.03%
DRD4 (Homo sapiens, UniProt P21917): 17.7%
CHRM5 (Homo sapiens, UniProt P08912): 18%
HRH3 (Homo sapiens, UniProt Q9Y5N1): -5.65%
HTR6 (Homo sapiens, UniProt P50406): -1.21%
HTR2B (Homo sapiens, UniProt P41595): -14.1%
ADRA1A (Homo sapiens, UniProt P35348): 7.39%
